# Assay results pooled from the literature.
# Each line is one published result; not all experiments were run side by side. Numbers after ± are the reported error.
SMILES,target or system,assay,test system,setting,scale,quantity,value
CC[C@H](C)[C@H](NC(=O)[C@H](CO)NC(=O)[C@@H](NC(=O)[C@@H](N)CCC(=O)O)C(C)C)C(=O)N[C@@H](CCC(=O)O)C(=O)N[C@H](C(=O)N[C@@H](CC(=O)O)C(=O)N[C@H](C(=O)N[C@H](C(=O)N[C@@H](CC(=O)O)C(=O)N[C@@H](CCC(=O)O)C(=O)N[C@H](C(=O)N[C@@H](CC(N)=O)C(=O)O)C(C)C)[C@@H](C)CC)[C@@H](C)CC)[C@@H](C)O,A549,,,"300 µM, 24 h",,viability,no effect
COc1ccccc1CNC(=O)CSc1c[nH]c2ccccc12,A549,"cytotoxicity, CCK-8",,,,CC50,76.2 µM
Nc1nc2ncc(CNc3ccc(C(=O)N[C@@H](CCC(=O)NCCOCCOCCNC(=O)CN4CCN5CCN(CC4)CC(=O)[O][Al]([18F])[O]C(=O)C5)C(=O)O)cc3)nc2c(=O)[nH]1,A549 tumour model,,"host not given, tumour","90 min, tumour-bearing",,tracer uptake,2.8 %ID/g
CN[C@](C)(C[18F])C(=O)O,A549 tumour model,,"host not given, liver","30 min, tumour-bearing",,tracer uptake,4.6 %ID/g
c1nc(N2CCCCCC2)ncc1CNC12CC3CC(CC(C3)C1)C2,A549,MTT,,,,CC50,29.3 µM
CC(=O)N[C@@H](CO)C(=O)N[C@@H](CC(=O)O)C(=O)N[C@@H](CCCCNC(=O)CCCC[C@@H]1SC[C@@H]2NC(=O)N[C@@H]21)C(=O)N1CCC[C@H]1C(=O)O,A549,flow cytometry,,"40 µg/mL, 5 min, 37 °C",relative to: cells,cellular uptake,12.6 ± 1.2%
CC(C)Cc1ccc(C(C)C(=O)[O-])cc1.CC(C)Cc1ccc(C(C)C(=O)[O-])cc1.[Cu+2].c1ccncc1.c1ccncc1 (centres unmarked),A549,"cytotoxicity, MTT",,48 h,,IC50,72 µM
OC12CC3CC(C1)CC(NCc1cnc(N4CCCCC4)nc1)(C3)C2,A549,MTT,,,,CC50,> 300 µM

# Excerpt of the above:
SMILES,target or system,assay,test system,setting,scale,quantity,value
COc1ccccc1CNC(=O)CSc1c[nH]c2ccccc12,A549,"cytotoxicity, CCK-8",,,,CC50,76.2 µM
